Measurements pooled from the literature.
Compare with care: the assays were run in different laboratories. Several values in a cell are separate wells, animals, samples, runs or records.
JAK3 JH1: Tyrosine-protein kinase JAK3, JH1 (JAK3, Homo sapiens, UniProt P52333)
Sequence of UniProt P52333 (whole entry, looked up): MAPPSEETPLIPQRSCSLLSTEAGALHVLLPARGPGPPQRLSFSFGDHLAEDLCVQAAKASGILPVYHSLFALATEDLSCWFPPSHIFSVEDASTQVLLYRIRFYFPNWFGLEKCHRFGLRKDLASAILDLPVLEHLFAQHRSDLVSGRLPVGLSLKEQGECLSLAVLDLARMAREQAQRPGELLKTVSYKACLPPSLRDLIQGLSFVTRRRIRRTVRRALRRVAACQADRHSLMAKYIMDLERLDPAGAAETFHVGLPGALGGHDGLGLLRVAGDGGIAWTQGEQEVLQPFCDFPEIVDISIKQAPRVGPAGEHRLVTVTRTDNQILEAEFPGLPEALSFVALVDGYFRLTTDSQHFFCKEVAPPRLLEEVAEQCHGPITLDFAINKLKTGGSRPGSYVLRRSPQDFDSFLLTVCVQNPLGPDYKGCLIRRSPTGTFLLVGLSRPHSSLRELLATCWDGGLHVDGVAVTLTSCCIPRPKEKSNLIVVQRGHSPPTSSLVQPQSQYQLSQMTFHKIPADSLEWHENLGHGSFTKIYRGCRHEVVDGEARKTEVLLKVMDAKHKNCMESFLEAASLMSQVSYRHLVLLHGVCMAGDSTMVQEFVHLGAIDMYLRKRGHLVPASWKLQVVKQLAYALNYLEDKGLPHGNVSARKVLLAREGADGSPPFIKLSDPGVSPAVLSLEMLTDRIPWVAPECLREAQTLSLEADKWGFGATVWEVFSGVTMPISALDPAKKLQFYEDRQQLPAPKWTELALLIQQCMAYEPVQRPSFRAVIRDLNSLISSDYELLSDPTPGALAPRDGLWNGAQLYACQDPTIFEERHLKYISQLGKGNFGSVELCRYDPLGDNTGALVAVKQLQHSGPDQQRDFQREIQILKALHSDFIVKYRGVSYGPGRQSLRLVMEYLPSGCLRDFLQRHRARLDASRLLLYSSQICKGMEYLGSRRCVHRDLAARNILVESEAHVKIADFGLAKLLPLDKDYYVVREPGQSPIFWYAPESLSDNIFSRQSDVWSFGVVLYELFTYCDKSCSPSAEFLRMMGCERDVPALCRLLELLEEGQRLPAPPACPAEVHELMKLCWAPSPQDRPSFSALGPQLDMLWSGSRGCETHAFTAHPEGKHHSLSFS
JAK3: Tyrosine-protein kinase JAK3 (JAK3, Homo sapiens, UniProt P52333)

COc1ccc(NC(=O)Nc2ccc3c(c2)C(=O)N(C(C)CO)CC(C)C(CN(C)Cc2ccc4c(c2)OCO4)O3)cc1 (stereo not drawn)
remaining binding (JAK3 JH1; binding, competition with immobilised ligand; 10 µM): 66%

CC(C)=CC1OC(C)(C)C2C=C3C(=O)C(Cl)=CC(O)C3C3C(O)C4OC4C(=O)C132 (stereo not drawn)
remaining binding (JAK3 JH1; cell-free assay, competition with immobilised ligand; 10 µM): 66%

COc1ccc(C(=O)/C=C/c2ccccc2-c2c[nH]c3ccc(C#N)cc23)c(O)c1
inhibition (JAK3; enzyme activity, inhibitor; 20 µM): 9%

CNC1C[S+]2CC[S+]3CC[S+](C1)[Ru-4]321([N]=C=S)[n]2c3ccc(OC)cc3c3c4c(c5cc(F)c[n+]1c5c32)C(=O)NC4=O (stereo not drawn)
remaining binding (JAK3; KinomeScan; 0.1 µM; reference: untreated): 70%

Nc1ncc2c(n1)-c1c([nH]c3ccc(C4=CCOCC4)cc13)CCC2
remaining binding (JAK3 JH1; binding, competition with immobilised ligand; 1 µM): 97%

CNS(=O)(=O)Nc1nccc(Cc2c(C)c3ccc(Oc4ncccc4F)cc3oc2=O)c1F
remaining binding (JAK3 JH1; binding, competition with immobilised ligand; 10 µM): 100%

Nc1ncc(-c2cc(-c3cnn(CC(F)(F)F)c3)ncc2F)nc1C(=O)NC1CNCC(F)C1 (stereo not drawn)
remaining activity (JAK3; enzyme activity; 1 µM; reference: DMSO control): 98.5%

Cc1cccc(O[C@H]2CCC[C@@H](C(C)CNCc3ccncc3)C2)c1 (relative stereo)
inhibition (JAK3; enzyme activity, inhibitor; 10 µM): -4%

CCn1cc(C(=O)O)c(=O)c2c(N)c(F)c(NC3CCCCC3)cc21
inhibition (JAK3; kinase activity; 0.1 µM, with: ATP at Km): -17%

CCN1CCN(Cc2ccc(C(=O)Nc3ccc(C)c(NCc4cnc5[nH]ccc5c4OC)c3)cc2C(F)(F)F)CC1
remaining binding (JAK3 JH1; binding, competition with immobilised ligand; 1 µM): 12%

CN1CCN(Cc2ccc(NC(=O)c3cccc(C#Cc4cnc(N)c5ncccc45)c3)cc2C(F)(F)F)CC1
remaining binding (JAK3 JH1; cell-free assay, competition with immobilised ligand; 50 nM): 16%

O=C(Nc1ccc(Oc2ncnc3[nH]cc(-c4ccccc4)c23)c(F)c1)c1c2n(n(-c3cc(F)ccc3F)c1=O)CCCC2
inhibition (JAK3; enzyme activity, inhibitor; 0.5 µM): 12%

CN1CCN(Cc2ccc(-c3ccc(CO[C@H]4CCC[C@@H]4NC(=O)c4cc(-c5cnn(C)c5)cnc4N)cc3)cc2)CC1
inhibition (JAK3; enzyme activity, inhibitor; 0.1 µM): -10%

C[C@H]1CN(C(=O)c2cn(-c3ccnc(N)n3)c3cc(C#CC4(O)CCCCC4)ccc23)CCN1
inhibition (JAK3; enzyme activity, inhibitor, FRET; 1 µM): -2%

CCN1CCN(Cc2ccc(NC(=O)c3ccc(C)c(NC(=O)c4cncc(-c5cccs5)c4)c3)cc2C(F)(F)F)CC1
remaining binding (JAK3; KinomeScan; 1 µM): 33%

COc1cc(-n2cc3cc(F)cc(C(N)=O)c3n2)cc(Cl)c1C1CC(O)(CCO)Cc2ccccc21 (stereo not drawn)
inhibition (JAK3; enzyme activity, inhibitor; 10 µM): 0.83%

NC(=O)C[C@H]1CCc2sc3ncnc(O[C@H]4CC[C@H](N5CCOCC5)CC4)c3c21
inhibition (JAK3; enzyme activity, inhibitor; 10 µM): 10%

C=CC(=O)Nc1cccc(-c2cnc3[nH]cc(C(=O)NC(C)(C)C)c3n2)c1
inhibition (JAK3; kinase activity; 0.1 µM): 99%

O=C(Cc1ccc(OCc2ccccc2)cc1)NC1(C(=O)O)CCN(C(=O)c2ccc(-c3cccc(Cl)c3)cc2)CC1
activity vs control (JAK3; enzyme activity, inhibitor; 10 µM): 106%

COCC12C(=O)NC3C4(C(OC)CC1O)C1CC5(O)C(OC)C(O)C(OC(C)=O)(C1C5OC(=O)c1ccccc1)C3(O)C(OC)C24 (stereo not drawn)
remaining activity (JAK3; kinase activity, inhibitor, ProQinase kinase profiling; 25 µM; reference: control): 105% and 102%

C=CC(=O)N1CCCC(n2c(=O)c3ncccc3n(Cc3ccc(Oc4ccccc4)cc3)c2=O)C1 (stereo not drawn)
remaining binding (JAK3 JH1; cell-free assay, competition with immobilised ligand; 1 µM): 64%

For quick reference, copied from above:
COc1ccc(C(=O)/C=C/c2ccccc2-c2c[nH]c3ccc(C#N)cc23)c(O)c1
inhibition (JAK3; enzyme activity, inhibitor; 20 µM): 9%

Nc1ncc2c(n1)-c1c([nH]c3ccc(C4=CCOCC4)cc13)CCC2
remaining binding (JAK3 JH1; binding, competition with immobilised ligand; 1 µM): 97%
